# Published values of several laboratories.
# Lines come from different studies, so protocols differ.
# Target: Melatonin receptor type 1A (MTNR1A, Homo sapiens, UniProt P48039)
# Chain of UniProt P48039 (whole entry, looked up): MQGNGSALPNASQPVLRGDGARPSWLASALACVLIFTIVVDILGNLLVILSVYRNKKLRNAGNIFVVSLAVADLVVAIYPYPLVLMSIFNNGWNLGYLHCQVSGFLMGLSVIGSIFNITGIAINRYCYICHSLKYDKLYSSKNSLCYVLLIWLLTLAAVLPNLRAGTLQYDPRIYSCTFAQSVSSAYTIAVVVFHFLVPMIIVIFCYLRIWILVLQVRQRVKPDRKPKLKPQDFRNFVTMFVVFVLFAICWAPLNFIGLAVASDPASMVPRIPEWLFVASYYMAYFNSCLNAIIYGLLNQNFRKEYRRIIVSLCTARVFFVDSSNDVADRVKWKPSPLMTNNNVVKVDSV
Structure (SMILES),test,test system,conditions,measurement,value
Cn1ccc2cc(-n3c(=O)[nH]c4sc5c(c4c3=O)CCCC5)ccc21,"ligand displacement, radioligand",,10 µM,inhibition,-9%
Cc1[nH]nc2c1N=C(c1ccccc1Cl)c1cnc(N3CCOCC3)cc1N2,ligand displacement,,10 µM,inhibition,43%
COCC(=O)N1CCc2cc(-c3csc(NC(=O)c4cc(OC)cc(OC)c4)n3)ccc21,cell-free assay,,10 µM,inhibition,-3%
O=C1c2sc(-c3ccc(N4CCC(F)C4)nc3F)nc2CCN1c1cccnc1 (centres unmarked),"ligand displacement, radioligand",,1 µM,inhibition,-2%
COc1cc2c(CCNC(C)=O)c[nH]c2cc1Cl,"β-arrestin recruitment, agonist",CHO-K1,90 min,Emax,97%
CC(=O)c1cnc(N)nc1N1CC[C@H]1c1nn2ccc(Cl)c2c(=O)n1-c1ccccc1,"ligand displacement, radioligand",,10 µM,inhibition,18%
COc1ccc2[nH]c(-c3cccc4ccccc34)c(CCNC(=O)CI)c2n1,"cAMP, agonist, TR-FRET",CHO-K1,20 min,Emax,84%
CO[C@@H](C)c1c(NC(=O)Nc2cnc(-n3nccn3)c(C(F)(F)F)c2)cnc2sc(C)nc12,"ligand displacement, radioligand",,10 µM,inhibition,7.5%
